Measured values of several laboratories.
Parts stem from different laboratories: compare values within a part only.
UniProt O96017, sequence (whole entry, looked up): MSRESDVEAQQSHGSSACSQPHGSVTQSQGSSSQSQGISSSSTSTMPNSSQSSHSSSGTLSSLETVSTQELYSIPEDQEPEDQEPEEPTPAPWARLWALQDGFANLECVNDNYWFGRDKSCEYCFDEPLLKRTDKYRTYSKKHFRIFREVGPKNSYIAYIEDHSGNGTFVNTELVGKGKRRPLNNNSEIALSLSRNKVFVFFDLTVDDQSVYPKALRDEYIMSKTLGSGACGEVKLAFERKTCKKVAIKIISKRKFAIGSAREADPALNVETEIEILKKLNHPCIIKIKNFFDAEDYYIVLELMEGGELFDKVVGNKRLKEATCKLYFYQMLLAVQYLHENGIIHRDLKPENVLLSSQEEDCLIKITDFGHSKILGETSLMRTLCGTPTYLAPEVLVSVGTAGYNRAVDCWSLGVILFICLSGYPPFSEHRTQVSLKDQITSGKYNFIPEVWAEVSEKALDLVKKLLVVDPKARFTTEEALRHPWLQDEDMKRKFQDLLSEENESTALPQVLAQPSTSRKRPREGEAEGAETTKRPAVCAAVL
UniProt P42336, sequence (whole entry, unmodified, looked up): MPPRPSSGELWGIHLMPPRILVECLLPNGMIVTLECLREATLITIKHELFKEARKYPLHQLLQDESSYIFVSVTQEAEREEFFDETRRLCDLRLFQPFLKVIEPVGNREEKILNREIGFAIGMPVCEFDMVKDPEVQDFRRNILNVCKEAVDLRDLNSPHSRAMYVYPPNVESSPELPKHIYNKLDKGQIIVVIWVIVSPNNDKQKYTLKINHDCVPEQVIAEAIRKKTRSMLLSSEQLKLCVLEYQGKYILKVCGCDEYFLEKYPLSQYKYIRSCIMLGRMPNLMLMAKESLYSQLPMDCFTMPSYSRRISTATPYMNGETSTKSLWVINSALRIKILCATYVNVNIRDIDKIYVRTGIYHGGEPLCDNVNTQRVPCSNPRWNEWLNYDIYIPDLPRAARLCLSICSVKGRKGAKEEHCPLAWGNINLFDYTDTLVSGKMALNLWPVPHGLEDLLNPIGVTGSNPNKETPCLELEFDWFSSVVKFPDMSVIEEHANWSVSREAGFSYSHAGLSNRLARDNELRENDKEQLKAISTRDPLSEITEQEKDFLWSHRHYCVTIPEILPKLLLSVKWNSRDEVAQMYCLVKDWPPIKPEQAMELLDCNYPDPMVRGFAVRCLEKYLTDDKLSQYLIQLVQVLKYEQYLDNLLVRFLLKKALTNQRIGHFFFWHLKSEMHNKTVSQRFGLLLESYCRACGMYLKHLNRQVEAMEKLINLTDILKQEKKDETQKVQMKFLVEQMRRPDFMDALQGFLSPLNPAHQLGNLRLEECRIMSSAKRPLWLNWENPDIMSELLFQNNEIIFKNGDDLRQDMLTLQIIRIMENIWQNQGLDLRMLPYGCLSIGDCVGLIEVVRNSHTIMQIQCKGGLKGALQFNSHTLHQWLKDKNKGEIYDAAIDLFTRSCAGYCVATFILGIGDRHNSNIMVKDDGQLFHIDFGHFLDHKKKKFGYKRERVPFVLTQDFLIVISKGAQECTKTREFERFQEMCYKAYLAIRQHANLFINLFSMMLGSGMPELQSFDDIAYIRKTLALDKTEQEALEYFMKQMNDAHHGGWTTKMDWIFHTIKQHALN
UniProt Q9BQI3, sequence (whole entry, looked up): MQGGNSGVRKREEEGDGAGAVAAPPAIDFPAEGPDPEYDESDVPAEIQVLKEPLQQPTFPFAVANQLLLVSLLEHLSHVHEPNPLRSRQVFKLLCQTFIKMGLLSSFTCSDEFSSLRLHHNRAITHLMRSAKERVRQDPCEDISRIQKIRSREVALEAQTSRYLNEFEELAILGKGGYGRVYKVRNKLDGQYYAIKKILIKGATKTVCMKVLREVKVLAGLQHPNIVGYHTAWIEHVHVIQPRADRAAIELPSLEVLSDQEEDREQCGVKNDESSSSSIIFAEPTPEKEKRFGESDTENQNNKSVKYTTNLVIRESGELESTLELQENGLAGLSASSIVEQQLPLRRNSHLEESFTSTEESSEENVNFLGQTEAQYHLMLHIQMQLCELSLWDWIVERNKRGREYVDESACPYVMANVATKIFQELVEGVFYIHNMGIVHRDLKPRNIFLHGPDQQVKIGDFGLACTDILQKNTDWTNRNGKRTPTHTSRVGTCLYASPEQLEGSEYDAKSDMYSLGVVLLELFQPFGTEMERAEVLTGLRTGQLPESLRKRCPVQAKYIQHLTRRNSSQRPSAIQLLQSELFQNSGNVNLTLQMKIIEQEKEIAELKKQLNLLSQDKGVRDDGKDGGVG
UniProt Q96NX5, sequence (whole entry, looked up): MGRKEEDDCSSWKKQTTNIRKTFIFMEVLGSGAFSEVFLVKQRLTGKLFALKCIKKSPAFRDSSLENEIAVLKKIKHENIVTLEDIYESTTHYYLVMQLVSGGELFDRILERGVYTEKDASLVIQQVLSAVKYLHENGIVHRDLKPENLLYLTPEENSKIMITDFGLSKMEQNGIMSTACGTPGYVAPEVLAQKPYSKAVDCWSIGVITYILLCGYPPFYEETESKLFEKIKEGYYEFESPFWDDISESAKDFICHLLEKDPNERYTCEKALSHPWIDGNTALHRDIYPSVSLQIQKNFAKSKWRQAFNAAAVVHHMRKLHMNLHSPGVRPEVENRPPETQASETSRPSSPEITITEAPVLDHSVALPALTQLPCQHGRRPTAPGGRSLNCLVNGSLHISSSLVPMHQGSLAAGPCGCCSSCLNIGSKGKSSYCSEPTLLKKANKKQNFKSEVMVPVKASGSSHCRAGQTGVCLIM
UniProt Q8NE63, sequence (whole entry, looked up): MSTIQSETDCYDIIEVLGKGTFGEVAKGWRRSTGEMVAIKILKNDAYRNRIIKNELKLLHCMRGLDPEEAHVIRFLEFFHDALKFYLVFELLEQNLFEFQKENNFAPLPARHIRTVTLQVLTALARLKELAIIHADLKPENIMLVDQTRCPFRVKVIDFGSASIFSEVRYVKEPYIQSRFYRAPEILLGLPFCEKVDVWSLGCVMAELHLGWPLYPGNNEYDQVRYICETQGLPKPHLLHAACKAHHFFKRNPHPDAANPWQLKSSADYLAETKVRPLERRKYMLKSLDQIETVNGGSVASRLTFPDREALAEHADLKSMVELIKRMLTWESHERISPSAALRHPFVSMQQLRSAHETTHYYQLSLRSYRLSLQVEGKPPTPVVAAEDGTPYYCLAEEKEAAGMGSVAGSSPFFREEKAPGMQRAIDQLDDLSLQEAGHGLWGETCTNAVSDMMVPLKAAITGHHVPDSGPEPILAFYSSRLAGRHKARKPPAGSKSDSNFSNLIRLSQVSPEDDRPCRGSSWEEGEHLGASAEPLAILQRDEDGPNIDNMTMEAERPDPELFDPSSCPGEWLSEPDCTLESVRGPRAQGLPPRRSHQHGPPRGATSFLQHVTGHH
UniProt P45984, sequence (whole entry, looked up): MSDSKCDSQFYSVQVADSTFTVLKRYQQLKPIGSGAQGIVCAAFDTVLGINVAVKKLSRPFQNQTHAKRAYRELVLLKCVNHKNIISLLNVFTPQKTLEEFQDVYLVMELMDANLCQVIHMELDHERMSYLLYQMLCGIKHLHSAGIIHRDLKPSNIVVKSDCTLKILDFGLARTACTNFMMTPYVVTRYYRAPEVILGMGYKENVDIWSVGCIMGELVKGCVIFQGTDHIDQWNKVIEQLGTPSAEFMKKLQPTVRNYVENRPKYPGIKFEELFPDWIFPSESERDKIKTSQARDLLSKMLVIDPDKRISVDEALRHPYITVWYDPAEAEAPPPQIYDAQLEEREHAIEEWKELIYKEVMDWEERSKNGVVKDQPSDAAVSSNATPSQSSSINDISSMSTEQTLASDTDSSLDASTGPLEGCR
UniProt P10721, sequence (whole entry, unmodified, looked up): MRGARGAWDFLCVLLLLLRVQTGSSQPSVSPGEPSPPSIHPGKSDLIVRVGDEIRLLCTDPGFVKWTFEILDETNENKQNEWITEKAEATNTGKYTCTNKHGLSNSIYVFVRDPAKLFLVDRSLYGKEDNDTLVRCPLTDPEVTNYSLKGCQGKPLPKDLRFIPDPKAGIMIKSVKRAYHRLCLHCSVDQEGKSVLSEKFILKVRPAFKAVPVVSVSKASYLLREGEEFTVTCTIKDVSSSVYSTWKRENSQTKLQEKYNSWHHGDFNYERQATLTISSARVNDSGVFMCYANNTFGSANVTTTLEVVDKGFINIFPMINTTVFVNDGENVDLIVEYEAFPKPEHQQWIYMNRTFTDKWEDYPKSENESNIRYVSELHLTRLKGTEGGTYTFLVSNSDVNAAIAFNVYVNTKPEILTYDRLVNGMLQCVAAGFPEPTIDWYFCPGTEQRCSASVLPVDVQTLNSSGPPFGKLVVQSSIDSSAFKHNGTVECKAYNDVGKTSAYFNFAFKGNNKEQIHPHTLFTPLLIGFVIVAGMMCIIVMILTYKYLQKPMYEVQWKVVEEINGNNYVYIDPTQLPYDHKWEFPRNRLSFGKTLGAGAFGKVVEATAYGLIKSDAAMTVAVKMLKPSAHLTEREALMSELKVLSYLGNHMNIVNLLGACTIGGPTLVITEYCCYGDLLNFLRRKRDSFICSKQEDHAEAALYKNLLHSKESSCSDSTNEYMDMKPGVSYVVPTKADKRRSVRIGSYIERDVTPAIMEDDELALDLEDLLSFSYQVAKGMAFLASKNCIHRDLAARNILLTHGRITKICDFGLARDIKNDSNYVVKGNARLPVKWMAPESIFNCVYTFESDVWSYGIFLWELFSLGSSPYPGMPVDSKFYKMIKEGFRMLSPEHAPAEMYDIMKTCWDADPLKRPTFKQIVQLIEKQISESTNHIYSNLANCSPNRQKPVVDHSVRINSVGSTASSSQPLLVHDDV
UniProt P11802, sequence (whole entry, looked up): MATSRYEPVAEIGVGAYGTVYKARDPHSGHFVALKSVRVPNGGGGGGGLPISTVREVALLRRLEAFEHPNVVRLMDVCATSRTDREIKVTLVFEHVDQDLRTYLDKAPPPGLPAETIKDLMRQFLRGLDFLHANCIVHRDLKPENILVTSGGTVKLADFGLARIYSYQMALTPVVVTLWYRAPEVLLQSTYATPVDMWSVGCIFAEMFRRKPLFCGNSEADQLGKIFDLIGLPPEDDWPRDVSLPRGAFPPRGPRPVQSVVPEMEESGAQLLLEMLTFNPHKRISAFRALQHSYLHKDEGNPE

Block 1
Compound: CC(C)(C)c1nc2c3cc[nH]c(=O)c3c3cc(F)ccc3c2[nH]1
Read-out: enzyme activity
Mode: inhibitor
Tested at: 0.5 µM
Relative to: control
target	remaining activity
MAPK9 (Homo sapiens, UniProt P45984)	31.1%
TGFBR1 (Homo sapiens, UniProt P36897)	102%
DAPK2 (Homo sapiens, UniProt Q9UIK4)	18%
PRKACA (Homo sapiens, UniProt P17612)	97.9%
CHEK2 (Homo sapiens, UniProt O96017)	0.717%
cGMP-dependent protein kinase 1, isoform beta (PRKG1, Homo sapiens, UniProt Q13976)	52.3%
TGFBR2 (Homo sapiens, UniProt P37173)	58.2%
Cyclin-dependent kinase 4, with cyclin D1 (CDK4, Homo sapiens, UniProt P11802)	85.6%
CAMKK2 (Homo sapiens, UniProt Q96RR4)	69.4%
CAMK2D (Homo sapiens, UniProt Q13557)	59.4%
DAPK1 (Homo sapiens, UniProt P53355)	3.03%
OXSR1 (Homo sapiens, UniProt O95747)	100%
STK39 (Homo sapiens, UniProt Q9UEW8)	93.8%
STK10 (Homo sapiens, UniProt O94804)	72.6%
Tyrosine-protein kinase Lyn, isoform B (LYN, Homo sapiens, UniProt P07948)	95.9%
IKBKB (Homo sapiens, UniProt O14920)	52.1%
GRK3 (Homo sapiens, UniProt P35626)	104%
IKBKE (Homo sapiens, UniProt Q14164)	25.4%
Protein kinase C beta type, isoform beta-I (PRKCB, Homo sapiens, UniProt P05771)	91.5%

Block 2
Host: human
Matrix: microsomes or S9
Tested at: 2 µM
Time: 0.5 h
SMILES	remaining compound [%]
Cn1nnc(-c2ccc(OCC(=O)Nc3ccc4[nH]ccc4c3)cc2)n1	45.9
O=C1CCCC1CC/C=C/S(=O)(=O)c1ccccc1 (centres unmarked)	40.8
NC(=O)Cc1csc(NC(=O)CCNC2=NS(=O)(=O)c3ccccc32)n1	83
COc1cc(=O)n2c(c1C(=O)NC1CCCCCC1)CCCC2	58.9
Cc1ncn(-c2cc(NCCNC(=O)C(C)(C)C)ncn2)c1C	39.3
Cc1cc(C#N)cc(C(=O)c2c(C(C)C)c(=O)[nH]c(=O)n2Cc2cc(F)nc(OCCOCc3ccccc3)c2)c1	0.842
CN(C)c1ccc2c(c1)C(c1ccccc1)CC2=O (centres unmarked)	0.884
CC(C)(C)c1nnc2ccc(NC3CCCc4cn(C5CCCC5)nc43)nn12 (centres unmarked)	30.3
O=C(c1ccc2ncccc2c1)c1cncc(Br)c1Cl	0
COc1ccc(N(C)C(=O)c2cc(S(=O)(=O)N3CCc4ccccc43)cn2C)c(OC)c1	< 1
COc1cc(NC(=O)NC2CCN(c3nc4ccccc4n(CC(C)C)c3=O)CC2)cc(OC)c1	79.5
CCNC(=O)C(C)N(c1ccccc1)S(C)(=O)=O (centres unmarked)	92.7

Block 3
Cell line: HuT78
Tested at: 2 µM
Time: 48 h
Relative to: untreated
Structure (SMILES)	viability [%]
Nc1cccc(S(=O)(=O)N2CCCN(S(=O)(=O)c3ccc4c(c3)OCCO4)CC2)c1	123
C[C@@H]1CCN(C(=O)CC#N)C[C@@H]1N(C)c1ncnc2[nH]ccc12	102
CO[C@H]1C[C@@H]2CC[C@@H](C)[C@@](O)(O2)C(=O)C(=O)N2CCCC[C@H]2C(=O)O[C@H]([C@H](C)C[C@@H]2CC[C@@H](OCCO)[C@H](OC)C2)CC(=O)[C@H](C)/C=C(\C)[C@@H](O)[C@@H](OC)C(=O)[C@H](C)C[C@H](C)/C=C/C=C/C=C/1C	57.5
COc1cc2ncnc(Nc3ccc(O)c(Br)c3)c2cc1OC	114
C=CC(=O)Nc1ccc(CN2C(=O)N(c3cc(OC)cc(OC)c3)Cc3cnc(Nc4ccc(N5CCN(C)CC5)cc4)nc32)cc1	112
Cn1cnc2c(F)c(Nc3ccc(Br)cc3F)c(C(=O)NOCCO)cc21	110
COc1ccc(S(=O)(=O)N(CCO)c2ccccc2CN(C)C/C=C/c2ccc(Cl)cc2)cc1	115

Block 4
SMILES: NS(=O)(=O)c1cc(NC(=O)C2(c3ccccc3Cl)CC2)ccc1Oc1cccc(Cl)c1
Tested at: 1 µM
target	test	remaining binding [%]
MUSK (Homo sapiens, UniProt O15146)	cell-free assay, competition with immobilised ligand	77
PIK3CA (Homo sapiens, UniProt P42336, M1043I)	cell-free assay, competition with immobilised ligand	98
CHEK2 (Homo sapiens, UniProt O96017)	cell-free assay, competition with immobilised ligand	100
DCLK1 (Homo sapiens, UniProt O15075)	cell-free assay, competition with immobilised ligand	68
TRPM6 (Homo sapiens, UniProt Q9BX84)	cell-free assay, competition with immobilised ligand	95
HIPK4 (Homo sapiens, UniProt Q8NE63)	cell-free assay, competition with immobilised ligand	58
Tyrosine-protein kinase ABL1, non-phosphorylated (ABL1, Homo sapiens, UniProt P00519, F317I)	binding, competition with immobilised ligand	96
STK32B (Homo sapiens, UniProt Q9NY57)	cell-free assay, competition with immobilised ligand	91
PRKCQ (Homo sapiens, UniProt Q04759)	cell-free assay, competition with immobilised ligand	88
GRK1 (Homo sapiens, UniProt Q15835)	cell-free assay, competition with immobilised ligand	72
CAMK2G (Homo sapiens, UniProt Q13555)	cell-free assay, competition with immobilised ligand	93
Tyrosine-protein kinase ABL1, phosphorylated (ABL1, Homo sapiens, UniProt P00519, H396P)	cell-free assay, competition with immobilised ligand	93
PRKCE (Homo sapiens, UniProt Q02156)	cell-free assay, competition with immobilised ligand	65
eIF-2-alpha kinase GCN2, C-terminal kinase domain (EIF2AK4, Homo sapiens, UniProt Q9P2K8, S808G)	cell-free assay, competition with immobilised ligand	76
CDKL5 (Homo sapiens, UniProt O76039)	binding, competition with immobilised ligand	95
CAMK1G (Homo sapiens, UniProt Q96NX5)	cell-free assay, competition with immobilised ligand	100
KIT (Homo sapiens, UniProt P10721, V559D)	cell-free assay, competition with immobilised ligand	79
ALK (Homo sapiens, UniProt Q9UM73, L1196M)	cell-free assay, competition with immobilised ligand	85
EIF2AK1 (Homo sapiens, UniProt Q9BQI3)	cell-free assay, competition with immobilised ligand	95
NTRK3 (Homo sapiens, UniProt Q16288)	cell-free assay, competition with immobilised ligand	88
FGFR3 (Homo sapiens, UniProt P22607)	cell-free assay, competition with immobilised ligand	100
CDC42BPG (Homo sapiens, UniProt Q6DT37)	competition binding	82
PIP5K1C (Homo sapiens, UniProt O60331)	cell-free assay, competition with immobilised ligand	48
Insulin receptor (INSR, Homo sapiens, UniProt P06213)	cell-free assay, competition with immobilised ligand	100
